Results of several laboratories.
Lines come from different studies, so protocols differ.
Organism: Escherichia coli

| SMILES | assay | system | setting | MIC |
| --- | --- | --- | --- | --- |
| Cc1c(CN(C)C(=O)/C=C/c2cnc3c(c2)CC(NC(=O)OC(C)(C)C)C(=O)N3)oc2ccccc12 (stereo not drawn) | broth microdilution | AR-0048 |  | > 32 mg/L |
| CO/N=C(\C(=O)N[C@@H]1C(=O)N2C(C(=O)O)=C(CSc3nc(=O)c(O)nn3C)CS[C@H]12)c1csc(N)n1 | broth microdilution |  | 18 h | 0.0313 mg/L |
| NC[C@H]1O[C@H](O[C@H]2[C@H](O)[C@@H](O[C@H]3O[C@H](CO)[C@@H](O)[C@H](N)[C@H]3O)[C@H](N)C[C@@H]2N)[C@H](N)C[C@@H]1O | broth microdilution | ATCC 25922 | 5% CO2 | 2 mg/L |
| CC(C)Oc1c(NC(=O)c2ccc(NC(=O)[C@H](CC(N)=O)NC(=O)c3cc(F)c(/N=N/c4c(F)cccc4F)c(F)c3)cc2)ccc(C(=O)N/N=C/c2ccc(C(=O)O)s2)c1O |  | BW25113 | after 1 h irradiation at 365 nm | > 6.4 mg/L |
| N=C(N)c1ccc(OCCC(CCOc2ccc(C(=N)N)cc2)c2ccccc2)cc1 (stereo not drawn) |  | BW25113 | compound alone, rifampicin checkerboard | > 200 mg/L |
| N#Cc1ccc2[nH]c(CNCC34CC5CC(CC(C5)C3)C4)nc2c1 |  | ATCC 25922 |  | > 128 mg/L |
| O=C(O)c1cn(C2CC2)c2cc(N3CCC(O)(COc4ccc(N5C[C@H](CO)OC5=O)cc4F)CC3)c(F)cc2c1=O | broth microdilution |  | compound alone | 0.02 µM |
| Cc1c(CN(C)C(=O)/C=C/c2cnc3c(c2)CC(CCN)C(=O)N3)oc2ccccc12.Cl (stereo not drawn) | broth microdilution | AR-0493 |  | 4 mg/L |
| CO[C@H]1/C=C/O[C@@]2(C)Oc3c(C)c(O)c4c(O)c(c(/C=N/N5CCN(C)CC5)c(O)c4c3C2=O)NC(=O)/C(C)=C\C=C\[C@H](C)[C@H](O)[C@@H](C)[C@@H](O)[C@@H](C)[C@H](OC(C)=O)[C@@H]1C | broth microdilution OD600 | Mueller-Hinton broth | 24 h, 37 °C, together with: 2.5 mM CaCl2 | 32 µM |
| CO[C@H]1/C=C/O[C@@]2(C)Oc3c(C)c(O)c4c(c3C2=O)C(=O)C(N2CCN(c3ccc([N+](=O)[O-])cc3Cl)CC2)=C(NC(=O)/C(C)=C/C=C/[C@H](C)[C@H](O)[C@@H](C)[C@@H](O)[C@@H](C)[C@H](OC(C)=O)[C@H]1C)C4=O |  | ATCC 25922 |  | 20 µM |
| C[C@H]1COc2c(N3CCN(C)CC3)c(F)cc3c(=O)c(C(=O)O)cn1c23 | agar dilution | 16-1 ESBL |  | 0.5 mg/L |
| CCOC(=O)CCC(=O)O[C@H]1[C@H](O[C@@H]2[C@@H](C)[C@H](O[C@H]3C[C@@](C)(OC)[C@@H](O)[C@H](C)O3)[C@@H](C)C(=O)O[C@H](CC)[C@@](C)(O)[C@H](O)[C@@H](C)C(=O)[C@H](C)C[C@@]2(C)O)O[C@H](C)C[C@@H]1N(C)C |  | ATCC 25922 |  | 160 µM |
| N=C(N)c1ccccc1OCc1ccc(COc2ccccc2C(=N)N)cc1 |  | BW25113 | compound alone, rifampicin checkerboard | > 200 mg/L |
| CCc1ccccc1N/N=C/c1c2c(O)c3c(O)c(C)c4c(c3c1O)C(=O)[C@@](C)(O/C=C/[C@H](OC)[C@H](C)[C@@H](OC(C)=O)[C@H](C)[C@H](O)[C@H](C)[C@@H](O)[C@@H](C)/C=C/C=C(\C)C(=O)N2)O4 |  | ATCC 25922 |  | 20 µM |
| CC(C)(O/N=C(\C(=O)N[C@@H]1C(=O)N2C(C(=O)[O-])=C(C[N+]3(CCNC(=O)c4ccc(O)c(O)c4Cl)CCCC3)CS[C@H]12)c1csc(N)n1)C(=O)O |  | DSM 1116 | iron-depleted medium | 0.1 µM |
| CC[C@H](C)[C@H](NC(=O)[C@H](CCCNC(=N)N)NC(=O)[C@H](CCCNC(=N)N)NC(=O)[C@@H]1CCCN1C(=O)[C@@H]1CCCN1C(=O)[C@H](CCCNC(=N)N)NC(=O)[C@@H]1CCCN1C(=O)[C@H](CCCNC(=N)N)NC(=O)[C@@H]1CCCN1C(=O)[C@H](CCCNC(=N)N)NC(=O)[C@H](Cc1ccc(O)cc1)NC(=O)[C@@H]1CCCN1C(=O)[C@H](CCCCN)NC(=O)[C@H](CCCCN)NC(=O)[C@H](CC(=O)O)NC(=O)[C@@H](N)C(C)C)C(=O)N[C@@H](Cc1ccc(O)cc1)C(=O)N[C@@H](CC(N)=O)C(=O)N[C@@H](CCCNC(=N)N)C(N)=O | broth microdilution | MRE600 | 16 h, 37 °C, 25% Mueller-Hinton broth | 2 mg/L |
| CC(=O)NC[C@H]1CN(c2ccc(N3CCSCC3)c(F)c2)C(=O)O1 | broth microdilution |  | compound alone | 10 µM |

| SMILES | assay | system | setting | MIC |
| --- | --- | --- | --- | --- |
| Cc1cc(-c2cn[nH]c2-c2cccc(OCc3cccc(C#N)c3)c2)cc(C)n1 | broth microdilution | BW25113 |  | 2 mg/L |
| O=C(N[C@H](CO)[C@H](O)c1ccc([N+](=O)[O-])cc1)C(Cl)Cl | broth microdilution | ATCC 25922 | ambient air | 4 mg/L |
| CCN1CCN(C(=O)N[C@@H](C(=O)N[C@@H]2C(=O)N3[C@@H]2SC(C)(C)[C@@H]3C(=O)O)c2ccccc2)C(=O)C1=O | broth microdilution |  | 24 h, 37 °C, clinical isolate | > 400 µM |
| NCCCC[C@H](NC(=O)[C@H](Cc1ccccc1)NC(=O)[C@H](CCC(N)=O)NC(=O)[C@H](Cc1ccccc1)NC(=O)[C@H](CCC(N)=O)NC(=O)[C@@H](N)Cc1ccccc1)C(N)=O | broth microdilution, optical density |  |  | 1000 µM |
| O=C(N[C@H](CO)[C@H](O)c1ccc([N+](=O)[O-])cc1)C(Cl)Cl |  | ATCC 25922 |  | 40 µM |
| N=C(N)c1ccc(OCCCCCCCOc2ccc(C(=N)N)cc2)cc1 |  | BW25113 | compound alone, together with: erythromycin checkerboard | > 100 mg/L |
| CC(=O)O[C@@H]1CC(=O)O[C@H](C)C/C=C/C=C/[C@H](O[C@H]2CC[C@H](N(C)C)[C@@H](C)O2)[C@H](C)C[C@H](CC=O)[C@H](O[C@@H]2O[C@H](C)[C@@H](O[C@H]3C[C@@](C)(O)[C@@H](O)[C@H](C)O3)[C@H](N(C)C)[C@H]2O)C1 |  | ATCC 25922 |  | 640 µM |
| NC[C@H]1O[C@H](O[C@H]2[C@H](O)[C@@H](O[C@H]3O[C@H](CO)[C@@H](O)[C@H](N)[C@H]3O)[C@H](N)C[C@@H]2N)[C@H](O)[C@@H](O)[C@@H]1O | broth microdilution | ATCC 25922 |  | 6.87 µM |
| NC[C@H]1O[C@H](O[C@H]2[C@H](O)[C@@H](O[C@H]3O[C@H](CO)[C@@H](O)[C@H](N)[C@H]3O)[C@H](N)C[C@@H]2N)[C@H](N)C[C@@H]1O | broth microdilution | G92 | 18 h | 16 mg/L |
| CC1(C)S[C@@H]2[C@H](NC(=O)[C@H](N)c3ccccc3)C(=O)N2[C@H]1C(=O)O |  | ATCC BAA-196, resistant | 18 h, 37 °C, LED light 10 min, 1.57 mW | > 128 µM |
| CC(C)Oc1c(NC(=O)c2ccc(N3C(=O)C[C@H](NC(=O)c4cc(F)c(/N=N/c5c(F)cccc5F)c(F)c4)C3=O)cc2)ccc(C(=O)N/N=C/c2c(Cl)cncc2Cl)c1O |  | BW25113 | dark ground state | > 6.4 mg/L |
| C[C@@H]1[C@H](O)[C@@H](C)/C=C/C=C/C=C/C=C/C=C/C=C/C=C/[C@H](O[C@@H]2O[C@H](C)[C@@H](O)[C@H](N)[C@@H]2O)C[C@@H]2O[C@](O)(C[C@@H](O)C[C@@H](O)[C@H](O)CC[C@@H](O)C[C@@H](O)CC(=O)O[C@H]1C)C[C@H](O)[C@H]2C(=O)O |  | drug-resistant clinical isolate, MHB | 24 h, 37 °C | 128 µM |
| O=C(Cc1ccccc1)N[C@@H]1C(=O)N2C(C(=O)O)=C(CSc3cccc4cccnc34)C[S+]([O-])[C@H]12 (stereo partly drawn) |  | 2018-015 |  | > 128 mg/L |
| N=C(N)c1ccc(OCc2cccc(COc3ccc(C(=N)N)cc3)c2)cc1 |  | 552100 | compound alone | 100 mg/L |
| CC1(C)S[C@@H]2[C@H](NC(=O)Cc3ccccc3)C(=O)N2[C@H]1C(=O)O | broth microdilution |  | 18 h | 32 mg/L |
| COc1cc(C=O)ccc1OC1=C(Cl)C(=O)c2ccccc2C1=O | broth microdilution | MTCC 405 |  | 10 mg/L |

A few entries again:
| SMILES | assay | system | setting | MIC |
| --- | --- | --- | --- | --- |
| C[C@H]1COc2c(N3CCN(C)CC3)c(F)cc3c(=O)c(C(=O)O)cn1c23 | agar dilution | 16-1 ESBL |  | 0.5 mg/L |
| CCOC(=O)CCC(=O)O[C@H]1[C@H](O[C@@H]2[C@@H](C)[C@H](O[C@H]3C[C@@](C)(OC)[C@@H](O)[C@H](C)O3)[C@@H](C)C(=O)O[C@H](CC)[C@@](C)(O)[C@H](O)[C@@H](C)C(=O)[C@H](C)C[C@@]2(C)O)O[C@H](C)C[C@@H]1N(C)C |  | ATCC 25922 |  | 160 µM |
| N=C(N)c1ccccc1OCc1ccc(COc2ccccc2C(=N)N)cc1 |  | BW25113 | compound alone, rifampicin checkerboard | > 200 mg/L |
| CCc1ccccc1N/N=C/c1c2c(O)c3c(O)c(C)c4c(c3c1O)C(=O)[C@@](C)(O/C=C/[C@H](OC)[C@H](C)[C@@H](OC(C)=O)[C@H](C)[C@H](O)[C@H](C)[C@@H](O)[C@@H](C)/C=C/C=C(\C)C(=O)N2)O4 |  | ATCC 25922 |  | 20 µM |
